Published values from different studies.
Each numbered part is a random draw from the data of one study; scales do not carry over between parts. ± gives the spread as reported.

Study 1
Sample: human liver microsomes
Concentration: 5 µM
Time: 15 min
For `Clc1c(-c2ccc(Oc3ccccc3)cc2)ccn2c(CC3CC3)nnc12`, the compound metabolized was 6%.
`FC(F)(F)c1c(-c2ccc(N3CCNCC3)c(Cl)c2)ccn2c(CC3CC3)nnc12` has a compound metabolized of 8%.
`FC(F)(F)c1c(-c2ccc3c(ccn3-c3cccnc3)c2)ccn2c(CC3CC3)nnc12` has a compound metabolized of 22%.
`COc1ccc(CNc2ccc(-c3ccn4c(CC5CC5)nnc4c3C(F)(F)F)cc2F)cn1` has a compound metabolized of 22%.

Single results of other studies
crk3: crk3 (Leishmania mexicana, UniProt O15851)
With `CC[C@H](C)[C@@H]1NC(=O)[C@H](CC(C)C)NC(=O)[C@H](Cc2ccccc2)NC(=O)[C@H](Cc2ccccc2)NC(=O)[C@@H]2CCCN2C(=O)[C@@H]2CCCN2C(=O)[C@H](C(C)C)NC(=O)[C@H](CC(C)C)NC(=O)[C@H]([C@@H](C)CC)NC1=O` the cytotoxicity was 75% (SK-BR-3; LDH release; 400 µg/mL, 24 h).
For `Cc1ccc(C(=O)N/N=C/c2cc(Br)ccc2OCC(=O)O)cc1`, the seizure severity was 2.3 ± 0.48 (Racine scale 0-5; male mice, pilocarpine-induced seizures; oral, 20 mg/kg, 1.5 h after pilocarpine, unit not given, added: pilocarpine 300 mg/kg i.p.; higher = more severe).
The IC50 of `Brc1ccccc1Nc1ncnc2[nH]ncc12` is reported as 6000 nM (crk3, with CYC6 (Leishmania mexicana, UniProt O15851); inhibitor, IMAP fluorescence polarisation; added: ATP 100 µM).
Under “seizure latency increase”, `O=C(O)COc1ccc(Br)cc1/C=N/NC(=O)c1ccc(Cl)cc1` is recorded as 137% (measured: latency to stage 3; male mice, pilocarpine-induced seizures; oral, 20 mg/kg, dosed 30 min before pilocarpine, added: pilocarpine 300 mg/kg i.p.; relative to: pilocarpine vehicle group).
`COc1cccc(-c2ccc3nc(NC(=O)C4CCCCC4)nn3c2)c1` gave an IC50 of 360 nM (crk3; enzyme activity, inhibitor, radiometric).
The seizure severity of `O=C(O)COc1ccccc1/C=N/NC(=O)CNc1ccc(Cl)cc1` is reported as 2.6 ± 0.52 (Racine scale 0-5; male mice, pilocarpine-induced seizures; oral, 20 mg/kg, 1.5 h after pilocarpine, unit not given, added: pilocarpine 300 mg/kg i.p.; higher = more severe).
For `O=C(Nc1nc2ccc(-c3ccc(O)cc3)cn2n1)C1CCCCC1`, the IC50 was 120 nM (crk3; enzyme activity, inhibitor, radiometric).
`O=C(O)COc1ccc(Br)cc1C=NNC(=O)Cc1ccccc1` (mixture of isomers) — result for “Iba-1 level reduction”: 49.8% (ELISA; mouse, pilocarpine epilepsy model, hippocampus; oral, 20 mg/kg; relative to: epileptic controls).
With `Cn1ccc2c(-c3ccc4nc(NC(=O)C5CCCCC5)nn4c3)cccc21` the IC50 was 40 nM (crk3; enzyme activity, inhibitor, radiometric).

Repeated from above (study 1):
`COc1ccc(CNc2ccc(-c3ccn4c(CC5CC5)nnc4c3C(F)(F)F)cc2F)cn1` has a compound metabolized of 22%.
